Published values from different studies.
A part holds a random share of what one study measured. Changes are numbered by the printed parent chain.

Block 1
Target: ABI1, truncated, D143A, DHFR fusion (Arabidopsis thaliana)
Technique: DHFR PCA, deep sequencing
Matrix: yeast
Notes: methotrexate growth selection, single substitutions
Together with: (+)-ABA 58 µM
Baseline: wild-type fitted maximum
Direction: higher = stronger binding
Starting sequence: PYL1, truncated, DHFR fusion (Arabidopsis thaliana); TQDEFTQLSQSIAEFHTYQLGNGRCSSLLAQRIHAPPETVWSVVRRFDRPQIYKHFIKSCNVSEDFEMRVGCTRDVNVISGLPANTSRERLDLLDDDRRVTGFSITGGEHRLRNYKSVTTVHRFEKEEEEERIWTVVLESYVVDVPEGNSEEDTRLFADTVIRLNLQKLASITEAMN; partner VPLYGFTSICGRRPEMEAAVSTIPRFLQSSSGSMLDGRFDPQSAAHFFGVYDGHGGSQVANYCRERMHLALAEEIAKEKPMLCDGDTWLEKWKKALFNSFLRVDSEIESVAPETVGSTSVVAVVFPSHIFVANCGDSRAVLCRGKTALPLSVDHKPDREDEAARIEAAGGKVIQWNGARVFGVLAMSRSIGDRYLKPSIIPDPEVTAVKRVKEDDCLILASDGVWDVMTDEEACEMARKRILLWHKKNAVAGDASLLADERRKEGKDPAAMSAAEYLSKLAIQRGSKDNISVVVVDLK
Variant	relative binding score [%]
T106D	63.7
F124C	90.3
S140Q	7.98
G102A	76.2
Y141N	6.41
T120D	-1.58
R123L	86
I162W	6.96
F103Y	84.1
D144M	37.5
S42N	91.5
R45H	14.3
F47C	-5.22
R90W	6.8

Block 2
Target: Sox-I, HMG box (Salpingoeca helianthica)
Technique: Spec-seq
Molecule type: double-stranded DNA, one strand shown
Matrix: in vitro
Tested at: not given
Notes: whole probe, mean of replicates
Baseline: not given
Direction: lower = stronger binding
All sequences stand within: GAGTCGTCTCGTCAGCAC … CCGTAGAGCACTCAGGTC
Target sequence (chain): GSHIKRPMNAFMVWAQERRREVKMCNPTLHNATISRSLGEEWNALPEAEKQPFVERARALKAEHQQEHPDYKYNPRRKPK
Sequence	relative binding energy
TCAAGTT	0.528 ln ratio
GCATGTT	0.549 ln ratio
ACGTGTT	-0.0927 ln ratio
CATTCGA	1.23 ln ratio
CATGTGC	1.06 ln ratio
CATTATT	-1.27 ln ratio
AGAAGTT	0.135 ln ratio
TACAGTT	-0.28 ln ratio
CAACGTT	0.788 ln ratio
CATTTTA	0.668 ln ratio
TATAGTT	-0.618 ln ratio
CCGGGTT	1.09 ln ratio
CTGTGTT	-0.103 ln ratio
CGAAGTT	0.722 ln ratio
GGACGTT	1.15 ln ratio
CATCCTA	0.614 ln ratio
CATAAAT	0.218 ln ratio
GAAGGTT	1.21 ln ratio
CATCCCC	0.93 ln ratio
CATGAAA	0.825 ln ratio
TCGTGTT	0.347 ln ratio
CATAAAC	0.146 ln ratio
CATGCCG	1.06 ln ratio
AGTTGTT	-0.994 ln ratio
CATGACG	0.488 ln ratio

Block 3
Target: CREM, bZIP domain (human)
Technique: DHFR protein complementation
Matrix: yeast
Notes: single substitutions, most at no-binding floor
Baseline: wild-type JUN-FOS pair
Direction: higher = stronger binding
Starting sequence: JUN, bZIP domain (human); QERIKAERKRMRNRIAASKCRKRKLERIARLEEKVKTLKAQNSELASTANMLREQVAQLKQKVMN; partner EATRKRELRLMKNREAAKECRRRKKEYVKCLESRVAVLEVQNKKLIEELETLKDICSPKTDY
Variant	binding fitness [natural log]
M51G	-1.46
M51V	-1.42
K34S	-1.49
M51W	-1.55
I28L	-1.58
Q55A	-1.51
V35G	-1.53
K39D	-1.46
E44G	-1.45
E33C	-1.32
E33V	-1.45
T48F	-1.44
Q41S	-1.54
A49E	-1.52
S47Q	-1.4
R53A	-1.59
L52R	-1.55

Block 4
Target: RING finger protein unkempt homolog, zinc fingers 1-6, SBP tag (UNK, Homo sapiens, UniProt Q9C0B0, residues 30-357)
UniProt Q9C0B0, sequence (30-357, looked up): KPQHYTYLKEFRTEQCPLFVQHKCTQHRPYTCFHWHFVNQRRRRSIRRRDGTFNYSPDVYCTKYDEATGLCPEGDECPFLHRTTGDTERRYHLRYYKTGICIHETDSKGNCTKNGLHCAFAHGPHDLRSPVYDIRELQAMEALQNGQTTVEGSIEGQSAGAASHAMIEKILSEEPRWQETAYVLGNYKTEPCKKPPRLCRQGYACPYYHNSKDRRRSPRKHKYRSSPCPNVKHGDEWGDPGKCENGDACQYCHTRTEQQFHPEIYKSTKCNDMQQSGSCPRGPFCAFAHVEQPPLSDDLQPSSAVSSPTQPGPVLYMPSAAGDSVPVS
Technique: RNA Bind-n-Seq
Molecule type: RNA
Matrix: in vitro
Tested at: 100 nM
Notes: RNA with constant flanks, vertebrate orthologous sites, ends assumed
Baseline: input RNA pool
Direction: higher = stronger binding
Sequence	bound/input enrichment
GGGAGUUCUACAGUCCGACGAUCAAGCCCUGUGAAGGUCUACUGACCGCUCACUAUUGUCUGGUAUCUGUAAACACUUCUGUUUAGUCCUUUCAUUGUAUAAUUGAUGUUCCUUAAAACUGUCAGUGUAAAACAGGGCUUAUGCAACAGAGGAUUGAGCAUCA	0.777 ratio
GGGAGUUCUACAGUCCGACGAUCUUUUUUUUUUUGCACAUGACAGUGUUUGUAUUGAGGAUCUUCCAAGGAAGAGGGGUGCUGUAGCAGUGGUGCCUGGGUACCUGGCCUCCAGUGUCCCACCUCCUUCACCACCCCGCUUGGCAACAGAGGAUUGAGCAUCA	0.43 ratio
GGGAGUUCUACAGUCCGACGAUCAGAAAAUUUUAACCAAGAAUCUGAAGGUAGAAAUACAGGACCAUGGUUAUCUUCCUCACUUAGAAAUAGAUGCACACCUUUGUUCUCUAGAAGGAGGCGUGAGGGAAGAGAUGAAUCUUCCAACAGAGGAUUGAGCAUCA	0.848 ratio
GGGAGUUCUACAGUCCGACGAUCGCCUGUCCUUAUACUCUUCUGUGAAAGAGAUGAAUUAGGGAAAACUGUCUCCUUUUUAUAGUUUGUUUCUAAAUUAUGACCAAAAAAUAUUUUGCUAUUUCUUUCUUUAUAUAUGGACAUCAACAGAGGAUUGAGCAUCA	0.725 ratio
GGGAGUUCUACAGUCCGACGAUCAACUGACUGGUUUAAGAUUAUUUAGAUAAGAAGUUAUUACUGUAUGUGUGUUUUCAAAAUUGACUAUUUUUUUAAUCCAUCUUGCAAAUAUCGGCUGUGUGUGGCGGUUUCUUAACAUGUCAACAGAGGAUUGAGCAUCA	0.812 ratio
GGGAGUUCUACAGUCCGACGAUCGUAGUUUGUUUCUAAUUUCAAGCAAAAAAUCUUAUUGUACUUGAAUGUGUCCUGUUUUGUUAGCACACCUAGACUUGCUGUAACUGUACUCAUGUCCCAGUAUGUACGUUCUUUCUAUGACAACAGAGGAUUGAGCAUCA	0.802 ratio
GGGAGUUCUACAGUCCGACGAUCCUGUUGUGUGAAAUAUGUCUACCAAGAGAAGUAUCACACCAUAAACAUUGUCAAAUAAUUUAGCUACAGUCUUAGAUACCAAAUUAUAUGUCAGGCAUUUAAAGUGAAUUUGAGAUGAAACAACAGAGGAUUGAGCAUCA	1.17 ratio
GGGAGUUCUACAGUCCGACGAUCGGGACGCUUUGACGUGAAAAUUGAAGUUAAGAGCUGAUCACAAGCACAAAUCUUUCCCAUUAGCCAUUUAAAAAGUUAAAAAAAGAUACAAAAACAAAAAACCUACUAGUCUUGAACAAACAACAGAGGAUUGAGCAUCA	1.67 ratio
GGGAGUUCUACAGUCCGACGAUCAGUUUAGAUAAUCUUUUUAUUUUUUUUUCUUUUCCCUCAAUCCUUUUUUAUUUUUAAAACUAGUUCUUUUGUAAUGUGGUGUUCAAAACAGAAUUGAAAACUGGCACCCCAUCUCUUUGACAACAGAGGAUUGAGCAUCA	7.04 ratio
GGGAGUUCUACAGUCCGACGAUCGAACCUAAACUUAUAGCAAAAGAGCCAAGCAGUAGCAGUUUUUGUAAAUGUAAAAAUAAUUAGAUCCAGACUUUGUUUCCUUCAAUUUCAAAAAUAAAAAAUACCUCAGUGCUAUGUUUUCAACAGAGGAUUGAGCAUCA	1.04 ratio
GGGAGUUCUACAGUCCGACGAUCGUUGGGUCAUGACCCUUAUAGGUUAGGUCAUGAUGCUUACAGGUUAGGACAGGACCCCUAUAGAUUAGGCCAUGAUCCCUACAGACUAACUCCUGAUCCCUAUAGGAUGUCACCUAGACCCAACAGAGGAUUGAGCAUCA	0.91 ratio

Block 5
Target: Prothrombin, mature alpha-thrombin (F2, Homo sapiens, UniProt P00734)
Technique: aptamer microarray, sandwich
Molecule type: DNA with 2'F-ANA
Matrix: in vitro
Tested at: 200 nM
Notes: whole 15-mer aptamer, many near background
Together with: Cy3 exosite-II aptamer, 400 nM
Direction: higher = stronger binding
Sequence: GGTTGGTGTGGTTGG
Modification	mean fluorescence intensity
2'F-ANA at 2 3 7 8 9 10 12	433 a.u.
2'F-ANA at 5 7 12 13 15	110 a.u.
2'F-ANA at 2 7 8 10 13 15	123 a.u.
2'F-ANA at 5 7 9 10	47.9 a.u.
2'F-ANA at 2 3 4 5 8 12 15	221 a.u.
2'F-ANA at 5 7 10 11 12 13 15	64.9 a.u.
2'F-ANA at 5 8 10 14 15	43.5 a.u.
2'F-ANA at 1 4 5 7 10 11 15	48.1 a.u.
2'F-ANA at 1 2 5 6 8 12 14 15	48.7 a.u.
2'F-ANA at 1 2 4 6 11 12 13 14	54.1 a.u.
2'F-ANA at 2 3 5 7 9 10 11 12 13 14 15	52 a.u.
2'F-ANA at 5 8 12 13 15	112 a.u.
2'F-ANA at 1 8 9 11 12 13 14	62.5 a.u.
2'F-ANA at 1 2 5 10 13 14	47.6 a.u.
2'F-ANA at 4 5 6 8 12	167 a.u.
2'F-ANA at 3 4 6 7 8 12	1030 a.u.
2'F-ANA at 1 3 5 9 11 12 13 14	57.9 a.u.
2'F-ANA at 1 2 4 5 7 9 11 12	104 a.u.
2'F-ANA at 1 3 4 5 6 7 8 9 10 15	48.8 a.u.
2'F-ANA at 1 5 7 8 11 12 14 15	47.6 a.u.
2'F-ANA at 2 3 5 6 8 9 14 15	52.6 a.u.
2'F-ANA at 1 4 5 8 9 11	52.1 a.u.
2'F-ANA at 2 4 5 7 9 12 13 15	89.7 a.u.
2'F-ANA at 3 5 10 11 12 14 15	53.4 a.u.
2'F-ANA at 2 4 6 7 8 9 12 14	159 a.u.
